Assay results from different studies.
Every numbered part comes from another study and shows a few of its results, in no order.

Sample 1
Target: Protein max, full length (MAX, Homo sapiens, UniProt P61244-2, residues 1-151)
Technique: protein-binding microarray
Molecule type: double-stranded DNA, one strand shown
Sample: in vitro
Tested at: not given
Notes: k-mer, scored over probes, only values ≥0.25
Direction: higher = stronger binding
With `CGGCACGA` the E-score was 0.331.
For `ACGCGACC`, the E-score was 0.309.
`CAGCACGC` has an E-score of 0.403.
`ACACACGT` gave an E-score of 0.421.
With `ATGCGTAC` the E-score was 0.319.
`ACAGGTGA` has an E-score of 0.306.
The E-score of `GCGTGGTA` is reported as 0.432.
`GGACGCAC` gave an E-score of 0.319.
`CCAGGTGC` has an E-score of 0.306.
`CATGTTTA` has an E-score of 0.347.
The E-score of `CTGCGTGA` is reported as 0.3.
`CCGTGACA` gave an E-score of 0.279.
`CACACCAC` has an E-score of 0.305.
For `CGCATGAC`, the E-score was 0.428.
`GAACCCAC` has an E-score of 0.273.
`GCACGTGA` has an E-score of 0.491.
With `GTGGCGCA` the E-score was 0.355.
`CTCGTGAA` has an E-score of 0.327.
`CATGCGGG` gave an E-score of 0.428.

Sample 2
Target: PABPC1L2, full length, GST fusion (mouse, UniProt A0ABA7IW68)
Technique: RNAcompete
Molecule type: RNA
Sample: in vitro
Tested at: 20 nM
Notes: 7-mer, probes averaged, single round
Reference: mean of 7-mers
Direction: higher = stronger binding
Target sequence (chain): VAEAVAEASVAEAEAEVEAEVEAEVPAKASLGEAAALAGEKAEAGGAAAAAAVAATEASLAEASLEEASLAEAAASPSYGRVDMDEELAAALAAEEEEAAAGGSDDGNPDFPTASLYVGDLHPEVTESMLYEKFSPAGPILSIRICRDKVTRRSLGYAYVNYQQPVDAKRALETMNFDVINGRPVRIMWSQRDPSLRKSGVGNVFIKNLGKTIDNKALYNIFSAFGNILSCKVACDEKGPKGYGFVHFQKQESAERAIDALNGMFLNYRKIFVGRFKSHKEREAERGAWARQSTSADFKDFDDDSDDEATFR
For `UUGGCGC`, the 7-mer Z-score was -0.313.
With `GCCGCGG` the 7-mer Z-score was -0.374.
`GGUUCGU` has a 7-mer Z-score of -0.4.
`CCCACGC` has a 7-mer Z-score of -0.393.
With `CGAGCGG` the 7-mer Z-score was 0.0189.
For `CAUAUGU`, the 7-mer Z-score was -0.209.
`CCGAUUA` has a 7-mer Z-score of -0.242.
The 7-mer Z-score of `GGCAGUA` is reported as 0.242.
With `UUUGUCG` the 7-mer Z-score was -0.46.
With `UCAUGGU` the 7-mer Z-score was -0.151.
The 7-mer Z-score of `GGGAACA` is reported as 0.325.
For `GGGCCAA`, the 7-mer Z-score was 0.39.
`GGCUUUG` has a 7-mer Z-score of -0.32.
`AAUCACG` has a 7-mer Z-score of 0.234.
For `ACUUGUU`, the 7-mer Z-score was -0.414.
The 7-mer Z-score of `GAGUCGC` is reported as -0.3.

Sample 3
Target: RING finger protein unkempt homolog, zinc fingers 1-6, GST-SBP tag (UNK, Homo sapiens, UniProt Q9C0B0, residues 30-357)
Technique: RNA Bind-n-Seq
Molecule type: RNA
Sample: in vitro
Tested at: not given
Notes: RNA with constant flanks, human and mouse sites, ends assumed
Reference: input RNA pool
Direction: higher = stronger binding
Shared flanks, not repeated: GGGAGUUCUACAGUCCGACGAUC … CAACAGAGGAUUGAGCAUCA
Residues (chain): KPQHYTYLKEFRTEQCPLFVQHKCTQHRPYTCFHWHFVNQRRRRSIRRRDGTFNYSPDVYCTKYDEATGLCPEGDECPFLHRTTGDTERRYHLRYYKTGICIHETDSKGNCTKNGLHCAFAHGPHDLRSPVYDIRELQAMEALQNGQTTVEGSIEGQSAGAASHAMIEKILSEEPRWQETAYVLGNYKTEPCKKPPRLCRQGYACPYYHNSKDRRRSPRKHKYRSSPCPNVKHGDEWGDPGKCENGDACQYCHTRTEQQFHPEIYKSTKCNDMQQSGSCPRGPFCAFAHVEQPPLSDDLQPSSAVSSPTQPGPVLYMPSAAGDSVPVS
For `GAGGAGAAGCCGCCUAAUCCUAUGGAAGGCAUGACAGAGGAGCAGAAGGAACAUGAGGCCAUGAAGCUAGUGAACAUGUUUGACAAGCUCUCCAGGCACAGAGUCAUCCAACCCAUGGGG`, the bound/input enrichment was 0.157 ratio.
With `CUUCGGAAUGCACUACAACAGGAAAAUCAUAUUAUAGAUGGAGUAAAGGUCCAGGUUCACACUAGAAGGCCAAAACUUCCGCAAACAUCUGAUGAUGAAAAGAAAGAUUUUUGAGACUGC` the bound/input enrichment was 0.218 ratio.
`UGUGUAUGUACUGGCAGUAUUAAGUUUAUCCAUCAAGAAUGCUUAGUUCAAUGGCUGAAACACAGUCGAAAAGAAUACUGUGAAUUAUGCAAGCACAGAUUUGCUUUUACACCAAGCCGC` has a bound/input enrichment of 0.243 ratio.
For `GACGUUAAAAAUUUUCUGUAUGCCUGGUGUGGCAAAAGGAAGAUGACCCCAUCCUAUGAAAUUAGAGCAGUGGGGAACAAAAACAGGCAGAAAUUCAUGUGUGAGGUUCAGGUGGAAGGU`, the bound/input enrichment was 0.301 ratio.
`UGGGACUUGGCUAGUGGCAAAUUAAAACUGUCAUUGACUGGGCAUAUUAGUACUGUGCGGGGCGUGAUAGUAAGCACAAGGAGCCCAUAUCUGUUCUCUUGUGGAGAAGACAAACAAGUG` gave a bound/input enrichment of 0.533 ratio.
For `GGCAUUGCCCUUGACCAUCUUGGUCGAACCAUCUUCUGGACGGACUCUCAGUUGGAUCGAAUAGAAGUUGCAAAGAUGGAUGGCACCCAGCGCCGAGUGCUGUUUGACACGGGUUUGGUG`, the bound/input enrichment was 0.367 ratio.
`AUUCCAGCAGUUGCAAAUUCCAGUGCAAAUAGUUCCCCAAGUGAACUGGCAGAUGAACUACCAGACAUGACACUAGACAAAGAGGAAAUAGCAAAAGACCUGUUGUCAGGUGAUGACGAG` has a bound/input enrichment of 0.471 ratio.
With `CAGUUUGGAGCCACAGACCUGGAUGUGGCCAACUUCUACGUUUCCCAACUGCAGACUCCCAUAGGUGUACAGGCCGAGGCCUUGCUUCGAUGUAGUGACAUAAUUUCCUAUUCUUUCAAG` the bound/input enrichment was 0.808 ratio.
`UUUGCCACCCCGAGGAACAGCAGCUCAGCUUCAUUGAGCGCCUGGUGGAGAUGGCCAGCAGCUUGGCUAUCCGUGAGUGGAGGCGGCUGCCCCACGUGGUGUCCCAUGUGCAUACACCUC` gave a bound/input enrichment of 0.142 ratio.
For `GAAUUCCUAACUUGGUGUCAGUUUCUAAGGCCUUUAGUGUCUUGGAUAUUCUACUGUGUGUUUAGAACUGUUAAGUGUCACCUUAUUCUGGGAUUAUUGUCCUAGAAAUAUUCUGUUCUU`, the bound/input enrichment was 0.0626 ratio.
With `AUAUAUAUUCACUUGCAUUCAUGCAGAACACAAGCUUUGCUGUACAAAAUGUUGUGUUUCUUAGUGAUUUUAAAAGGCAUGCUUUGCAUGCAAAGGAAAACCAUUGCAGUUAGUCUUUUC` the bound/input enrichment was 0.846 ratio.

Sample 4
Target: RNA binding protein fox-1 homolog 2, RRM domain, GST-SBP tag (RBFOX2, Homo sapiens, UniProt O43251-10, residues 100-194)
Technique: RNA Bind-n-Seq
Molecule type: RNA
Sample: in vitro
Tested at: 365 nM
Notes: natural RNA segment, single round, ends assumed
Reference: no-protein control
Direction: higher = stronger binding
Shared flanks, not repeated: GGGAGUUCUACAGUCCGACGAUC … UGGAAUUCUCGGGUGCCAA
Construct (chain): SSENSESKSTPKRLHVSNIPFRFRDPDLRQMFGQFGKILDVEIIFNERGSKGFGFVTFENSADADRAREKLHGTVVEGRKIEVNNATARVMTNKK
Under “RBNS enrichment (R)”, `AUUAGACUGGUGAGAAAGAGCAGCCAGGGGGUCAGGCUUUCAGUCACCACCCUCCUGCUGCCACAGAAGGAAGUUCUCAGUAUACACCACAGUGCACGUGCAUGAUGGAG` is recorded as 8.69.
For `AAAAAAUAAGUUCCACAAGAUGGACAAAAAUGGUCCAUGAUAUUUAGCUUAAAUUGUAACCUUUUGUUGUGUAUAUAAAACUUCCUUGGAAGAAAAUAACCUUAUUGUUU`, “RBNS enrichment (R)” read 0.724.
`ACUGUAAAAUCAACAGGAAAUGGCCACUGGGAGAGAAGGAUUUGGUAUUGGGUGAGGGGCUUUCUCCCUUUACCUGCCUCUUCUUGCUUGCUAAUAGUAAGUUCUUUGUG`: “RBNS enrichment (R)” 0.322.
For `UGAGCUGGAUAGACUUGGGAUGGGGAGGGAGGGAGUUUUGUCUGUCUCCCUCCCCUCUCAGAACAUACUGAUUGGGAGGUGCGUGUUCAGCAGAACCUGCACACAGGACA`, “RBNS enrichment (R)” read 0.187.
`UACUGUGGUCCAGAAAUCAAUGUGUUUGUCUGACAAAAAAAAUAAUAAAAUAAACUGUUUUGAACAGCUUGUUUAGUGUUCUUGUGUUUGCAGAGGCUGGAGUGGGCAAA`: “RBNS enrichment (R)” 0.555.
`UAAGAAAAAUUCUUAUUUCUUUUUUUCACAGUGAACAUAAUCCUAAAUCCUUGGAUAUUUUUAGAAGUCUGUAACUUUACACAAAUAAUGAAAUAAUUUUUAAUUCAAAG` — result for “RBNS enrichment (R)”: 0.617.
`GUGGAUAGUUUGUGGAAAUCAUCCAAUUAAACAUACUGCUUAAAACAGUGUUGCUGUGACUUCAGAGACAAGCCUGGAAGGGGCACCUUAGGAAGCCCCUUCGCUUCAGU` — result for “RBNS enrichment (R)”: 0.313.
For `UGGACAUGGCUUUGGACUUGGAGGAUAUCUUGGAUUGGAUUGCACAAUGGCUUAAAUUCUUGAUUCUGCCUCAGGAGAAAGAAUAGUCUUCAUGUUUCCACUCAUCCUUC`, “RBNS enrichment (R)” read 0.365.
`GACCACACUCCAACACGGAGCUGGGGGCAUCGCUCCACAAAGACCUGCUGUGGGAAGAGGGUACUGAAUGGGCAAGAGCCUACAAGGUUCAGUCUAUGAUGGAGAGGGGA`: “RBNS enrichment (R)” 0.376.
Under “RBNS enrichment (R)”, `AUUUAUUUAUAGAAAUUUUGGUACAGUGUACAUUGAAAACCAUGUAAAAUAUUGAAGUGUCUAACAAAUGGCAUUGAAGUGUCUUUAAUAAAGGUUCAUUUAUAAAUGUC` is recorded as 0.368.
`CUGCCUUUUGUGAUACUUCCUGUGCUCCCUCAGAGAGAAACGGAGUGACCUUUUGUCCUUUACCUGAUUGGCACUUCGCAGUCUAUCUCCCUGGGUAGCAGACGGCUGCU` — result for “RBNS enrichment (R)”: 0.307.
`UUGACCAAUUGUCUACACAGCGACACAGAGUGUUGUGUAUGAAACGGAGUAACUGGCUUAAGGGGUUAAUGUGAGGCCUUACACAGUUGACGCAUAUACAUGAUUCUCAU`: “RBNS enrichment (R)” 0.708.

Sample 5
Target: Histone acetyltransferase KAT6A, winged helix 1, GST fusion (KAT6A, Homo sapiens, UniProt Q92794, residues 1-85)
Technique: protein binding microarray
Molecule type: double-stranded DNA, one strand shown
Sample: in vitro
Tested at: not given
Notes: 8-mer, flanks averaged, mean of 2 arrays, mostly near background
Reference: not given
Direction: higher = stronger binding
Construct (chain): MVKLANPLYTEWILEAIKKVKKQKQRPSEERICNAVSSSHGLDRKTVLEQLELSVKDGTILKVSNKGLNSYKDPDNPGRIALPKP
`ACGAAAGG` gave an E-score of -0.0353.
`AGGTAGAA` gave an E-score of -0.21.
`CTCGGGAC` gave an E-score of 0.18.
The E-score of `CTCAAGAA` is reported as -0.172.
With `CCCATGAA` the E-score was -0.285.
`CTGACCAC` gave an E-score of -0.307.
`ACTAGGGC` has an E-score of -0.0742.
`ATCGAGTC` gave an E-score of 0.00885.
`AAAATTTT` has an E-score of -0.243.
`GACTGGCC` gave an E-score of -0.0552.
With `CCGTATCC` the E-score was 0.3.
For `ATGGCTCG`, the E-score was -0.067.
`TTCCTCAA` gave an E-score of -0.0775.
`TCAACTAA` gave an E-score of -0.194.
For `ATACTCGC`, the E-score was 0.163.
`TAGAACGA` has an E-score of -0.102.
For `ACAGTAAC`, the E-score was 0.0165.
`CAGTTGGA` gave an E-score of 0.0101.
The E-score of `AGAATGCC` is reported as 0.103.
With `AAAGAACA` the E-score was -0.219.
`AGAACGTC` has an E-score of -0.244.
The E-score of `GAATTAAC` is reported as -0.156.
With `CCCAATGC` the E-score was -0.191.
`AAATAACG` has an E-score of 0.0611.
The E-score of `AGACCTCC` is reported as -0.115.

Some of these lines once more (sample 5):
For `ACAGTAAC`, the E-score was 0.0165.
`CAGTTGGA` gave an E-score of 0.0101.
The E-score of `AGAATGCC` is reported as 0.103.
With `AAAGAACA` the E-score was -0.219.
`AGAACGTC` has an E-score of -0.244.
The E-score of `GAATTAAC` is reported as -0.156.
With `CCCAATGC` the E-score was -0.191.
`AAATAACG` has an E-score of 0.0611.
The E-score of `AGACCTCC` is reported as -0.115.
